Published values pooled from the literature.
Parts stem from different laboratories: compare values within a part only.

Series 1
Target: RNA binding protein fox-1 homolog 2, RRM domain, GST-SBP tag (RBFOX2, Homo sapiens, UniProt O43251-10, residues 100-194)
Technique: RNA Bind-n-Seq
Form: RNA
Matrix: in vitro
Concentration: 365 nM
Setting: natural RNA segment, single round, ends assumed
Reference: no-protein control
Reading: higher = stronger binding
Construct (chain): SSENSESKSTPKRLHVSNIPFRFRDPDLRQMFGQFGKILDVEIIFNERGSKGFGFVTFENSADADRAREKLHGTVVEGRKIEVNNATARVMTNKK
`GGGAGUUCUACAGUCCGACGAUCUGUAGGGAGUUGUGGGUAGUGGGGAAGAGGGUUAGGAGGGUUUCAUUGUCUGUGAAGUGAGACCUUCCUUUUACUUUUCUUCUAUUGCCUCUGAGAGCAUCAGGCCUAGAUGGAAUUCUCGGGUGCCAA`: “RBNS enrichment (R)” 1.54.
`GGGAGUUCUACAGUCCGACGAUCUCAGAAUCUUCCUUAAGAGGGUGUCCAGUAUUAACUUUGAUUGGGAUUAAUCCAGGCAAAAGAAGAGACUUUAUCAGAGAGUGGAGUGAAGCAUUGUGGGUACUACCCGUUGGAAUUCUCGGGUGCCAA` — result for “RBNS enrichment (R)”: 0.435.
For `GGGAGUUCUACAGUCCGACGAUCUUUGAAAGCAGUAUGGCUUCUUCUGUGGGUCUCCCUCUUACUAGACAAGGUGAAAUGAUAAUUCGUGUCAAAUUAAUGUGAAAUUUUUUUCCUGCAUUGUAAUAUUAUGAUGGAAUUCUCGGGUGCCAA`, “RBNS enrichment (R)” read 0.696.
`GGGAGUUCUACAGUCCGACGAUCUAACUUAUUGUUCAUAUUCAUUUCUAAGUUAAUUUAAGUAAUCAUUUAUUAAGACAGAAUUUUGUAUAAACUAUUUAUUGUGCUCUCUGUGGAACUGAAGUUUGAUUUAUUGGAAUUCUCGGGUGCCAA` — result for “RBNS enrichment (R)”: 1.06.
`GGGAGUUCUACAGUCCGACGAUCCAAGAUAGAGGCAGACCUGACUGUUUCUUGAGGGUCCAUCAGGCAUCUCCAGGAGCUGGCCAGUUAUCUUAGAAAACAACUGAAUGGAAUAUUUUUGUACCUGAUGUUUCUGGAAUUCUCGGGUGCCAA`: “RBNS enrichment (R)” 0.391.
Under “RBNS enrichment (R)”, `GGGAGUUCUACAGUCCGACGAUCAACCCCACUCAGAAACAGAGAAAACUGGGGUCGCGAAGAAAUCACAGCCAAGGAAGAUUUGAUGCAUUCAGAUUCUCGUGUAACACUUGUUGCUUGGCAACAGUACUGGUUGGAAUUCUCGGGUGCCAA` is recorded as 0.244.
`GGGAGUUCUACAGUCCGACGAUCGAGAUCAGUGGAAUUUAGAAGCAUCUUACAGGUAUCAAGGAAUUGAGCUUCUAGAGGGAUGGUUUGGCUUACUAAUUUAUCUUCCCUGAAAUAUGUUUGAGUAAAAAAGAUGGAAUUCUCGGGUGCCAA` — result for “RBNS enrichment (R)”: 0.874.
Under “RBNS enrichment (R)”, `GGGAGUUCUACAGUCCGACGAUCGGUCCCCAGCUUGCCCUGAGCAGCCCUUCAGGGCUUCUGGUUCCUUCUGCCGCCCUUCCUGAGACCUUAGAAACCAGAAGAGCCAUACAGUCAGUGGAAGGCGGGGGGGCUGGAAUUCUCGGGUGCCAA` is recorded as 0.4.

Series 2
Target: Histone acetyltransferase KAT6A, winged helix 1, GST fusion (KAT6A, Homo sapiens, UniProt Q92794, residues 1-85)
Technique: protein binding microarray
Form: double-stranded DNA, one strand shown
Matrix: in vitro
Concentration: not given
Setting: 8-mer, flanks averaged, mean of 2 arrays, mostly near background
Reference: not given
Reading: higher = stronger binding
Target sequence (chain): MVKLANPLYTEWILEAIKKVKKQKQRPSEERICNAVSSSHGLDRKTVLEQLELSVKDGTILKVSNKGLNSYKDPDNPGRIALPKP
For `CAATGCTC`, the E-score was -0.179.
`TAACATGA` gave an E-score of 0.0186.
With `ATTCCTAC` the E-score was -0.0866.
The E-score of `TCAAAACA` is reported as -0.0204.
For `GCACCTTA`, the E-score was 0.0315.
`CAAGTAGA` gave an E-score of -0.123.
For `ACCTCATA`, the E-score was -0.239.
For `CATCCTAA`, the E-score was -0.123.
`CGTGACAC` has an E-score of 0.0803.
The E-score of `GAGTGTCC` is reported as -0.146.
`AGACACCT` gave an E-score of -0.0231.
`ACACGCTA` has an E-score of 0.205.
`AAGGCACA` gave an E-score of -0.19.
With `GTAGCTAC` the E-score was 0.00853.
With `CGCGACCA` the E-score was 0.323.
The E-score of `CAACGAGA` is reported as -0.205.
For `GCGAACCA`, the E-score was 0.073.
`AGATTCGC` has an E-score of 0.132.
With `ATTGCGAG` the E-score was 0.0362.
`AGGTCGCC` has an E-score of 0.14.
The E-score of `CCATGGAG` is reported as -0.092.
The E-score of `ATGAGTCC` is reported as 0.0849.
`CTCGGACA` has an E-score of 0.0385.
With `AAAAACTG` the E-score was -0.228.
`ATCGGAAG` has an E-score of -0.0459.

Series 3
Target: Ras GTPase-activating protein-binding protein 1, RRM domain (G3BP1, Homo sapiens, UniProt Q13283)
Sequence of UniProt Q13283 (whole entry, looked up): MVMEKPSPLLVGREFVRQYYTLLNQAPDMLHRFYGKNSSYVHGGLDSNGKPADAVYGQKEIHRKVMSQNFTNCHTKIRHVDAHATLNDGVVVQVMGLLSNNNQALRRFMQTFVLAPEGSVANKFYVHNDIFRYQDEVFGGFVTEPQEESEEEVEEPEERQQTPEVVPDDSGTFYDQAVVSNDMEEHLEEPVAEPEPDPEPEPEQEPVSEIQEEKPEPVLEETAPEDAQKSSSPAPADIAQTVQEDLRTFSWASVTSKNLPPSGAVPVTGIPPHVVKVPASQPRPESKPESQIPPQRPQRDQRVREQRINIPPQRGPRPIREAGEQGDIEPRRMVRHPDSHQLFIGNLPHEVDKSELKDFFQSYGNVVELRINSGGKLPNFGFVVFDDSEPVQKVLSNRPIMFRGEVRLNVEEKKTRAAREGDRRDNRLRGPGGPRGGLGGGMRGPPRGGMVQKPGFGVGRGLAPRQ
Technique: RNA Bind-n-Seq
Form: RNA
Matrix: in vitro
Concentration: 1 µM
Setting: whole 134-nt RNA, ends assumed
Together with: 150 mM KCl
Reference: input library
Reading: higher = stronger binding
With `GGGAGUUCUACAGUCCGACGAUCGUCCUGUGCUACACAUCGUAUGUACCGAAUCGGGGCCCCGGGGCCCCGGGGCCCCGGGAAAGUAUUAUGUUACGCCGUUCGGAUCUGCACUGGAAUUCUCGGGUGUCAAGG` the log2 enrichment was 0.141.
For `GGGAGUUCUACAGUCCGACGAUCUAACUUUAGAGGAGGAUCUGAUGGAUAUGGCAGUGCACGUGGAUUUGGGGAUGGCUAUAAUGGGUAUGGAGGAGGACCUGGAGGUGGCAAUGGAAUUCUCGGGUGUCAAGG`, the log2 enrichment was -0.627.
With `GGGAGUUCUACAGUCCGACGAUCAAGUCCUGUGCUACACAUCGUAUGUACCGAAUCGGUUUUUGGAAAAAAAGGUUUGGAAAGUAUUAUGUUACGCCGUUCGGAUCUGCACUUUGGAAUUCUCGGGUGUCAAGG` the log2 enrichment was -0.371.
With `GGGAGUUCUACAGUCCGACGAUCAAGUCCUGUGCUACACAUCGUAUGUACCGAAUCGGGCCCCGGCCCCGGGCCCCGGGAAAGUAUUAUGUUACGCCGUUCGGAUCUGCACUUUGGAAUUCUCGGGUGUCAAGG` the log2 enrichment was -0.932.
For `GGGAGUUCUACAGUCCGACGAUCUGUGCUACACAUCGUAUGUACCGAAUCGGGGUUUUUUUGGGGAAAAAGGGGUUUUUUUGGGGAAAGUAUUAUGUUACGCCGUUCGGAUCUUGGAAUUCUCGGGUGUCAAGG`, the log2 enrichment was 1.15.
`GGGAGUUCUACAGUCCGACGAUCCACAGACAACACGCACCCACACAGACACAGAGGGAAGGGGUUGGGAUGGGGACAGGGUGCACAGCAGGGCCGGGUAGGACCCCAGCCCCUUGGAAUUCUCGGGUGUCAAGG` gave a log2 enrichment of -0.355.
For `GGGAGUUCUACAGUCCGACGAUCCCUGUGCUACACAUCGUAUGUACCGAAUCAAACCCCCAAACCCCCCCAAAUUUUUUUAAAAAAGUAUUAUGUUACGCCGUUCGGAUCUGCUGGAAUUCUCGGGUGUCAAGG`, the log2 enrichment was -0.33.
`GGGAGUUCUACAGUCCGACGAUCAAGUCCUGUGCUACACAUCGUAUGUACCGAAUCGGGUUUUUGGUUUUUGGUUUUUGGAAAGUAUUAUGUUACGCCGUUCGGAUCUGCACUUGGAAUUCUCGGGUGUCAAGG` gave a log2 enrichment of -0.11.
`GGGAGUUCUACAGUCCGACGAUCUAACUUUAGAGGAGGAUCUGAUGGAUAUGGCAGUGGACGUGGAUUUGGGGAUGGCUAUAAUGGGUAUGGAGGAGGACCUGGAGGUUGCAAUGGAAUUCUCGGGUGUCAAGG` gave a log2 enrichment of -0.353.

Series 4
Target: Prothrombin, mature alpha-thrombin (F2, Homo sapiens, UniProt P00734)
Technique: aptamer microarray, sandwich
Form: DNA with 2'F-ANA
Matrix: in vitro
Concentration: 200 nM
Setting: whole 15-mer aptamer, many near background
Together with: Cy3 exosite-II aptamer, 400 nM
Reading: higher = stronger binding
Strand: GGTTGGTGTGGTTGG
For `2'F-ANA at 1 2 3 4 5 6 9 10 15`, “mean fluorescence intensity” read 138 a.u.
For `2'F-ANA at 1 3 6 7 8 13 14`, “mean fluorescence intensity” read 124 a.u.
For `2'F-ANA at 2 5 8 11 12 14 15`, “mean fluorescence intensity” read 53.6 a.u.
`2'F-ANA at 5 6 9 10 11 12 14 15` — result for “mean fluorescence intensity”: 48.7 a.u.
For `2'F-ANA at 1 4 8 9 12 13 14 15`, “mean fluorescence intensity” read 66.1 a.u.
Under “mean fluorescence intensity”, `2'F-ANA at 3 4 5 7 8 10` is recorded as 56.9 a.u.
Under “mean fluorescence intensity”, `2'F-ANA at 1 4 5 6 7 8 10 11 15` is recorded as 49.5 a.u.
Under “mean fluorescence intensity”, `2'F-ANA at 1 2 5 8 11 12 13 14` is recorded as 46.5 a.u.
For `2'F-ANA at 3 4 6 9 14`, “mean fluorescence intensity” read 264 a.u.
Under “mean fluorescence intensity”, `2'F-ANA at 1 2 3 5 6 8 9 12 14 15` is recorded as 49.1 a.u.
`2'F-ANA at 3 5 6 7 8 9 11 13 15` — result for “mean fluorescence intensity”: 82.4 a.u.
Under “mean fluorescence intensity”, `2'F-ANA at 1 3 4 6 8 10 11 13 14 15` is recorded as 53 a.u.
For `2'F-ANA at 2 3 4 9 11 12 13`, “mean fluorescence intensity” read 593 a.u.
For `2'F-ANA at 4 5 6 7 11 13 15`, “mean fluorescence intensity” read 50.4 a.u.
Under “mean fluorescence intensity”, `2'F-ANA at 5 6 7 8 15` is recorded as 83.5 a.u.
`2'F-ANA at 2 3 4 6 11 13 14 15` — result for “mean fluorescence intensity”: 192 a.u.
For `2'F-ANA at 1 5 10 11 14`, “mean fluorescence intensity” read 54.3 a.u.
`2'F-ANA at 2 4 5 7 8 9 10 11 14 15` — result for “mean fluorescence intensity”: 46.5 a.u.
`2'F-ANA at 2 3 4 5 7 9 10 13` — result for “mean fluorescence intensity”: 46.1 a.u.
`2'F-ANA at 1 3 5 6 7 9 10`: “mean fluorescence intensity” 44.8 a.u.
For `2'F-ANA at 1 3 4 5 7 8 11 14 15`, “mean fluorescence intensity” read 49.6 a.u.
Under “mean fluorescence intensity”, `2'F-ANA at 1 4 6 7 11 14` is recorded as 50 a.u.

Series 5
Target: Sal-like protein 4, full length isoform B (SALL4, Homo sapiens, UniProt Q9UJQ4-2, residues 1-616)
Technique: universal PBM
Form: double-stranded DNA, one strand shown
Matrix: in vitro
Concentration: not given
Setting: 8-mer, flanks averaged, mean of replicates
Reading: higher = stronger binding
Construct (chain): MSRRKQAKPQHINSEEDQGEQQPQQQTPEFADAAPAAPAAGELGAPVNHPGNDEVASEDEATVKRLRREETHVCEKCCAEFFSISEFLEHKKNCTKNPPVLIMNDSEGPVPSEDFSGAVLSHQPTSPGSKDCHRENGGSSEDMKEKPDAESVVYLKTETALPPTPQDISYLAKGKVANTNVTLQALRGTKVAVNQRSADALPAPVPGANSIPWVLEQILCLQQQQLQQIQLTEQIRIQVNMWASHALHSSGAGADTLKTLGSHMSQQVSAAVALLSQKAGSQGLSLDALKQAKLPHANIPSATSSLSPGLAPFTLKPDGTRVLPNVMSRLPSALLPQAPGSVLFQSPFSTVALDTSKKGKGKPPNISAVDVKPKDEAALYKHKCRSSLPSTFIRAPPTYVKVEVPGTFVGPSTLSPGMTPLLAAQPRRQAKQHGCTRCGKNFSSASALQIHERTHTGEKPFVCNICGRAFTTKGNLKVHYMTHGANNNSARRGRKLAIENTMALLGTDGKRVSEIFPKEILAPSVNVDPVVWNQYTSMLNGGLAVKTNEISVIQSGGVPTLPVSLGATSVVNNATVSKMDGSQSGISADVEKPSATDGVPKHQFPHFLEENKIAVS
`GACAGAAC` gave an E-score of 0.0572.
For `CCGCCGTC`, the E-score was -0.372.
For `CATCACAC`, the E-score was -0.0884.
For `AGGAACAG`, the E-score was -0.114.
For `CCTGAACG`, the E-score was -0.117.
For `CATCTCAG`, the E-score was -0.0814.
With `CGCAAGCA` the E-score was 0.109.
For `TCACATGA`, the E-score was 0.149.
`AAGAGATA` gave an E-score of 0.167.
`CATATCCG` gave an E-score of 0.0923.
For `CCAATTAC`, the E-score was 0.0163.
`GTCGCGAC` has an E-score of -0.0852.
The E-score of `AATAGCAA` is reported as 0.32.
With `AACGTGCA` the E-score was 0.0387.
`ACACTGGT` gave an E-score of -0.0109.
The E-score of `CTCTCCGC` is reported as -0.143.
For `GTGCCCAA`, the E-score was -0.0933.

Some of these lines once more (series 4):
Under “mean fluorescence intensity”, `2'F-ANA at 5 6 7 8 15` is recorded as 83.5 a.u.
`2'F-ANA at 2 3 4 6 11 13 14 15` — result for “mean fluorescence intensity”: 192 a.u.
For `2'F-ANA at 1 5 10 11 14`, “mean fluorescence intensity” read 54.3 a.u.
`2'F-ANA at 2 4 5 7 8 9 10 11 14 15` — result for “mean fluorescence intensity”: 46.5 a.u.
`2'F-ANA at 2 3 4 5 7 9 10 13` — result for “mean fluorescence intensity”: 46.1 a.u.
